Measurements pooled from the literature.
Protocols differ between the studies behind these lines. ± gives the spread as reported.
ADRA2C: Alpha-2C adrenergic receptor (ADRA2C, Homo sapiens, UniProt P18825)
UniProt P18825, sequence (whole entry, looked up): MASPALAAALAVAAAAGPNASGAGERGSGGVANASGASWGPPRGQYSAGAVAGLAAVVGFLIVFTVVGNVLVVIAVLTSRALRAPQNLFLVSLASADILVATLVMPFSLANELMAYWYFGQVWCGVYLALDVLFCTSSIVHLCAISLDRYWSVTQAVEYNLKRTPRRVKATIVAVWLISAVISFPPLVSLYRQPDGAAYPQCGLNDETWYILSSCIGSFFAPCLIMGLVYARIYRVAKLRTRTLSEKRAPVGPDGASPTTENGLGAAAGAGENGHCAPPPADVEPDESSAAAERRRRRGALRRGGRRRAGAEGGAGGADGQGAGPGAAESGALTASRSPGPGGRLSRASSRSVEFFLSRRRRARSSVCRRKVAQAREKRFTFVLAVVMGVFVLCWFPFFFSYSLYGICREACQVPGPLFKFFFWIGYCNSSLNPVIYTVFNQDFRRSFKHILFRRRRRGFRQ
ACHE: Acetylcholinesterase (ACHE, Homo sapiens, UniProt P22303)
UniProt P22303, sequence (whole entry, looked up): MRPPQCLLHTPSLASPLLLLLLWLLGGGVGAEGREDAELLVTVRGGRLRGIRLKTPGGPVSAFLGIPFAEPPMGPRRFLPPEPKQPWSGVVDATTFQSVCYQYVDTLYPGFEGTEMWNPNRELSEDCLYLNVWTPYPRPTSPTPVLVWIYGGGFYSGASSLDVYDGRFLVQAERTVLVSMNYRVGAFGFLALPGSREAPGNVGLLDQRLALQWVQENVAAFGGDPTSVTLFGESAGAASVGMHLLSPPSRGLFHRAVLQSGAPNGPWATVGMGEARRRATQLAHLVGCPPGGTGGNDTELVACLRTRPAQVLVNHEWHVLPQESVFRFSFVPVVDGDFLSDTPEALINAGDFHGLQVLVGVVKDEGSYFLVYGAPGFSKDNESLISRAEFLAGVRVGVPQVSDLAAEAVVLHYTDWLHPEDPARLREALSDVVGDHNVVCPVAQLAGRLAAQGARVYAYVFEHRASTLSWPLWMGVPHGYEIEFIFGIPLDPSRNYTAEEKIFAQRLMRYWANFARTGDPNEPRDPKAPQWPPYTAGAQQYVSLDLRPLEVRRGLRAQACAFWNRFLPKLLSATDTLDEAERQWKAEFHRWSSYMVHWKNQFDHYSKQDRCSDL
HDAC1: Histone deacetylase 1 (HDAC1, Homo sapiens, UniProt Q13547)
UniProt Q13547, sequence (whole entry, looked up): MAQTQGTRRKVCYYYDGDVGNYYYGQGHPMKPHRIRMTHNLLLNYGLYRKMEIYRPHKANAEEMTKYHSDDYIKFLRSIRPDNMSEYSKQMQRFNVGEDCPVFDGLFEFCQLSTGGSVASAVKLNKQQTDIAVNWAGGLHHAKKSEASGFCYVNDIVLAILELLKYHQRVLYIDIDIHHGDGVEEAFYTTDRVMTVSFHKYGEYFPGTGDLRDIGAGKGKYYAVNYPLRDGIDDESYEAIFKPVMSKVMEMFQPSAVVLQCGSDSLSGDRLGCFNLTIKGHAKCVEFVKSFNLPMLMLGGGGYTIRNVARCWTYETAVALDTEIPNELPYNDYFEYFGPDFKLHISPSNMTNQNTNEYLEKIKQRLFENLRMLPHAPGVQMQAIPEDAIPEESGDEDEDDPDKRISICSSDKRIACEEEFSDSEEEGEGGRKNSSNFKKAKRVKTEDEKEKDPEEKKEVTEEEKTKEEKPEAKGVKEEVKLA
lacZ: Beta-galactosidase (lacZ, Escherichia coli K-12, UniProt P00722)
UniProt P00722, sequence (whole entry, looked up): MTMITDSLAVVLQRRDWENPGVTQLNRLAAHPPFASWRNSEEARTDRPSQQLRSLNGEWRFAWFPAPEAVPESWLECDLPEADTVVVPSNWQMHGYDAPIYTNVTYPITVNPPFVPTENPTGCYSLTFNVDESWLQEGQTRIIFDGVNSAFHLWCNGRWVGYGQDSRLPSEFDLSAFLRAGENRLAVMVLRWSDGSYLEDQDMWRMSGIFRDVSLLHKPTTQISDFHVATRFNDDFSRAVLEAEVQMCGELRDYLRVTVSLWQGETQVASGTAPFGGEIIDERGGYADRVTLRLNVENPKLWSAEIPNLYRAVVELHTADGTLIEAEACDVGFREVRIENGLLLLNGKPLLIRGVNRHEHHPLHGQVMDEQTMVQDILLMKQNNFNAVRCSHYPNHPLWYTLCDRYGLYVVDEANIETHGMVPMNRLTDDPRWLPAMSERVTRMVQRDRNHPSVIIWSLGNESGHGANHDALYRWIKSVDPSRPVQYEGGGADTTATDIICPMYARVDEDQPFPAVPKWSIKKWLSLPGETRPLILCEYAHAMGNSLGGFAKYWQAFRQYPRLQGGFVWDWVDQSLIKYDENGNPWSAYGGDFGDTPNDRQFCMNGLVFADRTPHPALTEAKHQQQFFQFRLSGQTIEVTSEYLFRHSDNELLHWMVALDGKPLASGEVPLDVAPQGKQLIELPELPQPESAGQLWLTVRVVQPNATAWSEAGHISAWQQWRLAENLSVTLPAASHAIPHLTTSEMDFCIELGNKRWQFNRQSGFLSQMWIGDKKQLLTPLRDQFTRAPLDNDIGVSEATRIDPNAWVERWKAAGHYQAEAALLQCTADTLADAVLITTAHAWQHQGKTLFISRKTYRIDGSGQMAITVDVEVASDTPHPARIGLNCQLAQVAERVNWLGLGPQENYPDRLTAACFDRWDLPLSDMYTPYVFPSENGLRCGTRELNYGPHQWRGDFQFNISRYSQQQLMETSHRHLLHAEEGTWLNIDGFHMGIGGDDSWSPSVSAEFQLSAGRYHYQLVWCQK
UniProt Q8N695, sequence (whole entry, looked up): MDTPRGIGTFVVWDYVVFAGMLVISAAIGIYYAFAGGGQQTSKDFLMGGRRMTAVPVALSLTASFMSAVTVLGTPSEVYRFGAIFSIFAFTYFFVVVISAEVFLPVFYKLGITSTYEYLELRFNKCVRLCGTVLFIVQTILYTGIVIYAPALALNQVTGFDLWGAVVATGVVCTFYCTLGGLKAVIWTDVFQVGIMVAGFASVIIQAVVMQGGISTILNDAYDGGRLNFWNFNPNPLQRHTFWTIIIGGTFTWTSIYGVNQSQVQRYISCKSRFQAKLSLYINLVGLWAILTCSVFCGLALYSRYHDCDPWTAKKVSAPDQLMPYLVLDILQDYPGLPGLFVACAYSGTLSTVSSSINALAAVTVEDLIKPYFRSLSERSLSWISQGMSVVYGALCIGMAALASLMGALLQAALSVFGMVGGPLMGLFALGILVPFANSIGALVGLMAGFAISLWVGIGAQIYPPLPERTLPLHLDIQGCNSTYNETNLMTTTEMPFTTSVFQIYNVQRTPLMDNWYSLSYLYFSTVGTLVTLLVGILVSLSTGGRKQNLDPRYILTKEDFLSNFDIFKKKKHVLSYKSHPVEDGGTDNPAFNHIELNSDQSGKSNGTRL
UniProt P04191, sequence (whole entry, looked up): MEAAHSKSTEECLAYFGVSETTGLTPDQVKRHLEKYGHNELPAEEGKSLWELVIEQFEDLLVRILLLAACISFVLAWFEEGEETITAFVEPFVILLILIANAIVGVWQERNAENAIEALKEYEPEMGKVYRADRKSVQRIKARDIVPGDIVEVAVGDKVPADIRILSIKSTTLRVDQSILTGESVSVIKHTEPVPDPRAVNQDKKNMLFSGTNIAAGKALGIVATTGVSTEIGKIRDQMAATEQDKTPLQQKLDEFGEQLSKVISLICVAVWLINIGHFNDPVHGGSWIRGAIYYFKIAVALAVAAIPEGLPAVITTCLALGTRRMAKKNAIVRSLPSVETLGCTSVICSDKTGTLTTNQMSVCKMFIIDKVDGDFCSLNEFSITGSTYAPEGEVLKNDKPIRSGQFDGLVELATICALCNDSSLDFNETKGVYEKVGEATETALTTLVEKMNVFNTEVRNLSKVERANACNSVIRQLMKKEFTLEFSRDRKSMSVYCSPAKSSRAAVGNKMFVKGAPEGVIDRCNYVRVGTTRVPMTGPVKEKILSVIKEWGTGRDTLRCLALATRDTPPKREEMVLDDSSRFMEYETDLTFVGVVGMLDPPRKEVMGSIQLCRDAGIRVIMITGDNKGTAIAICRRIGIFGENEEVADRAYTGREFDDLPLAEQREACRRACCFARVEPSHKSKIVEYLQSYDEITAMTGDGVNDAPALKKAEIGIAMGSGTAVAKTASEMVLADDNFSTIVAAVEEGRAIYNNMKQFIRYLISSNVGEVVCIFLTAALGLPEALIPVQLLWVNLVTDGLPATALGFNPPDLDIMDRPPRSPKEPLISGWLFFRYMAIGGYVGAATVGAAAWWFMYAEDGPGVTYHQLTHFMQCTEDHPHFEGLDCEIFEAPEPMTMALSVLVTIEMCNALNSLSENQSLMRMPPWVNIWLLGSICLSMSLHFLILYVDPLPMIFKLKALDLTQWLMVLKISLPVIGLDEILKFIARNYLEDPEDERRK
UniProt Q00534, sequence (whole entry, looked up): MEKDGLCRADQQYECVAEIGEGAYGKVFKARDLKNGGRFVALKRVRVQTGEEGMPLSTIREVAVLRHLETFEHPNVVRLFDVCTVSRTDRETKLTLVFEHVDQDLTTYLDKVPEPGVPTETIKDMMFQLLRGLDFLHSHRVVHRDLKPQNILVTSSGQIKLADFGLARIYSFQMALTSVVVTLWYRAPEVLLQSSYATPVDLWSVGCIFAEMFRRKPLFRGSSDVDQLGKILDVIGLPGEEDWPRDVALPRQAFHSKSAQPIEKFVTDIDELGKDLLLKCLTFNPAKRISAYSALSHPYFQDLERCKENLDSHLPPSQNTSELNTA
UniProt P28223, sequence (whole entry, looked up): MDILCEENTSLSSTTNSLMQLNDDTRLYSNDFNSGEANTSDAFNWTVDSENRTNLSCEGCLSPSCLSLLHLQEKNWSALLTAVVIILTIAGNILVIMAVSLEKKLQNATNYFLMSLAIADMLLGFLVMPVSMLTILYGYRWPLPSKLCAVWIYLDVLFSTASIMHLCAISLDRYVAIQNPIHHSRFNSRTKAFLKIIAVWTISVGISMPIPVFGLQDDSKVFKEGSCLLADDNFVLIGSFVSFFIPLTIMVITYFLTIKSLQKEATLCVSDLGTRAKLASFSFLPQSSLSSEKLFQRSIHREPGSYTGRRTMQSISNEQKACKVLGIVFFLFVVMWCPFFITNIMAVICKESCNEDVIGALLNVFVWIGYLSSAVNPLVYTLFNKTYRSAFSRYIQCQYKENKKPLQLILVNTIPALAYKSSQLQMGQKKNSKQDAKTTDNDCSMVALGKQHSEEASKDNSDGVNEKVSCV

SMILES	target	assay	test system	conditions	inhibition
CC1N=C(c2ccccc2F)c2cc(Nc3ccc(O)cc3)ccc2NC1=O (centres unmarked)	ADRA2C	ligand displacement, radioligand	–	10 µM	29%
CN(C)CCCN1c2ccccc2Sc2ccc(Cl)cc21	Type II NADH:quinone oxidoreductase (Staphylococcus aureus, UniProt Q2YWP9)	NDH-2 enzyme activity	E. coli membranes	50 µM, 37 °C, added: 150 µM NADH	87 ± 9%
O=C(O)C(=O)CBr	SLC5A8 (Homo sapiens, UniProt Q8N695)	nicotinate uptake	HRPE expressing SLC5A8	1 mM, 15 min, human, added: [14C]nicotinate 15 µM	96%
O=C(/C=C/c1ccc(OCc2ccccc2)cc1)c1ccc(OCc2ccccc2)cc1	ACHE	enzyme activity, inhibitor	–	concentration not given	82.1%
CC1N=C(c2ccccc2F)c2cc(N3CCCCC3)ccc2NC1=O (centres unmarked)	ADRA2C	ligand displacement, radioligand	–	10 µM	31%
Cn1c(=O)c2c(ncn2CC(=O)OCc2cn(-c3cc(=O)oc4ccccc34)nn2)n(C)c1=O	ACHE	enzyme activity, inhibitor, Ellman	–	25 µM	> 75%
CC(C)(C)c1cnc(CSc2cnc(NC(=O)C3CCNCC3)s2)o1	Cyclin-dependent kinase 6 (CDK6, Homo sapiens, UniProt Q00534)	probe labeling, KiNativ live-cell profiling	MOLT-4 CRBN knockout	0.25 µM	73.8%
CCN1C(=O)C=CC1=O	Acetylcholinesterase (Ace, Anopheles gambiae, UniProt Q869C3)	enzyme activity	–	100 µM, 30 min, before dilution	45 ± 2%
CC1N=C(c2ccccc2F)c2cc(Nc3ccc(S(C)(=O)=O)cc3)ccc2NC1=O (centres unmarked)	ADRA2C	ligand displacement, radioligand	–	10 µM	7%
Cn1c(=O)c2c(ncn2CC(=O)N/N=C/c2ccc3c(c2)OCO3)n(C)c1=O	ACHE	enzyme activity, inhibitor, Ellman	–	25 µM	73.6%
O=C(Nc1ccc(-c2ccccc2)cc1)c1coc(-c2ccccc2O)n1	HDAC1	enzyme activity, inhibitor	–	20 µM	> 50%
Cc1ccc(Nc2ccc3c(c2)C(c2ccccc2F)=NC(C)C(=O)N3)cc1 (centres unmarked)	ADRA2C	ligand displacement, radioligand	–	10 µM	59%
O=c1c2ccccc2[se]n1-c1ccccc1	Genome polyprotein, NS3 helicase domain (Hepatitis C virus genotype 1b, UniProt Q9WMX2)	NS3 helicase RNA binding, fluorescence polarization	–	concentration not given, highest tested concentration, added: 50 µM thiol (DTT, β-mercaptoethanol or cysteine)	< 50%
O=C(C1CCN(S(=O)(=O)c2cccc3cccnc23)CC1)N1CCn2c1nc1ccccc12	lacZ	–	–	concentration not given	92%
Cc1nc2sccn2c(=O)c1CCN1CCC(=C(c2ccccc2)c2ccc(F)cc2)CC1	5-hydroxytryptamine receptor 2A (HTR2A, Homo sapiens, UniProt P28223)	agonist response, antagonist	–	10 µM, added: reference agonist at EC90	99.9%
C=C(C)[C@H](CC=C(C)C)Cc1c(O)cc(OC)c2c1O[C@H](c1ccc(O)cc1O)CC2=O	D(2) dopamine receptor (DRD2, Homo sapiens, UniProt P14416)	–	–	50 µM	> 70%
CCS(=O)(=O)CC(C)(O)[C@H]1CCc2c(c(C)cc(O)c(=O)c2O)C1 (mixture of isomers)	Gag-Pol polyprotein, RT RNase H domain (gag-pol, Human immunodeficiency virus type 1 group M subtype B, UniProt P04585)	RNase H PPT cleavage, inhibitor	–	20 µM	~100%
O=C(O)[C@@H]1CCCN1C(=O)OCC1c2ccccc2-c2ccccc21	Cholinesterase (BCHE, Equus caballus, UniProt P81908)	enzyme activity, Ellman method	–	200 µM, 2% methanol	≤ 10%
CSc1ccc(Nc2ccc3c(c2)C(c2ccccc2F)=NC(C)C(=O)N3)cc1 (centres unmarked)	ADRA2C	ligand displacement, radioligand	–	10 µM	69%
NCc1ccc(C(F)(F)F)cc1	folP (Staphylococcus aureus, UniProt O05701)	enzyme activity	–	250 µM	no inhibition
O=C(O)c1ccc(CNC(=O)c2coc(-c3ccccc3O)n2)cc1	HDAC1	enzyme activity, inhibitor	–	20 µM	> 50%
CCCCCCCCCCCCNS(=O)(=O)C(F)(F)F	Epoxide hydrolase 1 (EPHX1, Homo sapiens, UniProt P07099)	enzyme activity, inhibitor, fluorescence	–	100 µM	65%
CC1N=C(c2ccccc2F)c2cc(NCc3ccccc3)ccc2NC1=O (centres unmarked)	ADRA2C	ligand displacement, radioligand	–	10 µM	47%
O=C(C1CCN(S(=O)(=O)c2cnc[nH]2)CC1)N1CCn2c1nc1ccccc12	lacZ	–	–	concentration not given	35%
COc1ccc(Nc2ccc3c(c2)C(c2ccccc2F)=NC(C)C(=O)N3)cc1 (centres unmarked)	ADRA2C	ligand displacement, radioligand	–	10 µM	55%
C/C=C(/C)C(=O)O[C@H]1C(C)=C2[C@H]([C@@H]1OC(=O)CCCCCCC)[C@@](C)(OC(C)=O)C[C@H](OC(=O)CCC)[C@@]1(O)[C@H]2OC(=O)[C@@]1(C)O	Sarcoplasmic/endoplasmic reticulum calcium ATPase 1 (ATP2A1, Oryctolagus cuniculus, UniProt P04191)	Ca2+-ATPase activity, inhibitor	rabbit muscle microsomes	20 µM	> 90%
O=C(NC(c1ccccc1)c1ccccc1)c1coc(-c2ccccc2O)n1	HDAC1	enzyme activity, inhibitor	–	20 µM	> 50%
CC1N=C(c2ccccc2F)c2cc(Nc3ccccc3C#N)ccc2NC1=O (centres unmarked)	ADRA2C	ligand displacement, radioligand	–	10 µM	34%
COc1cc(/C=N/NC(=O)Cn2cnc3c2c(=O)n(C)c(=O)n3C)ccc1O	ACHE	enzyme activity, inhibitor, Ellman	–	25 µM	> 75%

A few entries again:
SMILES	target	assay	test system	conditions	inhibition
O=C(O)C(=O)CBr	SLC5A8 (Homo sapiens, UniProt Q8N695)	nicotinate uptake	HRPE expressing SLC5A8	1 mM, 15 min, human, added: [14C]nicotinate 15 µM	96%
O=C(/C=C/c1ccc(OCc2ccccc2)cc1)c1ccc(OCc2ccccc2)cc1	ACHE	enzyme activity, inhibitor	–	concentration not given	82.1%
